{"data": "Assay results from different studies", "note": "Parts stem from different laboratories: compare values within a part only. Several values in a cell are separate wells, animals, samples, runs or records."}
{"data": "Sample 1", "cell line": "normal-adjacent epithelium patient-derived organoids sample E", "technique": "CellTiter-Glo", "tested at": "1 µM", "reference": "DMSO"}
{"SMILES": "CC(=O)NCC(=O)N1[C@@H]2CC[C@H]1c1ccc(Nc3ncc(C(F)(F)F)c(NC4CCC4)n3)cc12", "viability": "23.7% and 28.6%"}
{"SMILES": "CCC(=N\\O)/C(C)=C/c1ccc(F)cc1", "viability": "114% and 97.2%"}
{"SMILES": "COc1cccc2c1C(=O)c1c(O)c3c(c(O)c1C2=O)C[C@@](O)(C(=O)CO)C[C@@H]3O[C@H]1C[C@H](N)[C@H](O)[C@H](C)O1", "viability": "35.8%"}
{"SMILES": "Cc1ncc(-c2cc(Cl)ccc2F)cc1-n1c(=O)n(CC(N)=O)c2ccccc21", "viability": "98.9% and 98.8%"}
{"SMILES": "CCCCNc1ncc(-c2ccc(CN3CCOCC3)cn2)c(NC2CCC(O)CC2)n1 (stereo not drawn)", "viability": "120% and 128%"}
{"SMILES": "COc1cc(Nc2nccc(-c3cnn4nc(OC)ccc34)n2)cc(C(F)(F)F)c1", "viability": "41.2%"}
{"SMILES": "Cc1ccc(NC(=O)Nc2cc(C(F)(F)F)ccc2F)cc1Nc1ccc2c(c1)NC(=O)/C2=C\\c1ccc[nH]1", "viability": "59.3%"}
{"data": "Sample 2", "Structure (SMILES)": "c1ccc(Oc2ccc(Nc3c4c(nc5ccccc35)CCC4)cc2)cc1", "organism": "Leishmania donovani"}
{"test": "parasite killing", "system": "DD8, intracellular amastigotes", "setting": "0.004 µM, 24 h", "inhibition": "0%"}
{"test": "parasite killing", "system": "DD8, promastigotes", "setting": "1.66 µM, 72 h", "inhibition": "84% and 81%"}
{"test": "parasite killing", "system": "DD8, intracellular amastigotes", "setting": "0.08 µM, 24 h", "inhibition": "4% and 5%"}
{"test": "parasite killing", "system": "DD8, promastigotes", "setting": "0.33 µM, 48 h", "inhibition": "31% and 27% and 30%"}
{"test": "parasite killing", "system": "DD8, intracellular amastigotes", "setting": "8 µM, 48 h", "inhibition": "89% and 80% and 91%"}
{"test": "parasite growth, high-content imaging", "system": "MHOM/IN/80/DD8, amastigotes in THP-1 cells", "setting": "20 µM", "inhibition": "100%"}
{"test": "parasite killing", "system": "DD8, promastigotes", "setting": "0.033 µM, 24 h", "inhibition": "4% and 5%"}
{"data": "Sample 3", "species": "human", "medium": "microsomes or S9", "tested at": "2 µM", "time": "0.5 h"}
{"Structure (SMILES)": "CN1CCC2(CCN(c3cc(C(C)(C)C)nc(Cl)n3)CC2)C1=O", "remaining compound [%]": "> 100"}
{"Structure (SMILES)": "CN(C)S(=O)(=O)CCNCc1ccc(-c2ccccc2)cc1", "remaining compound [%]": 135}
{"Structure (SMILES)": "O=C(COC(=O)c1ccc(Br)o1)c1ccc(Cl)c(Cl)c1", "remaining compound [%]": 83.3}
{"Structure (SMILES)": "CCS(=O)(=O)CCNC(=O)NC(C)c1ccc(C)s1 (stereo not drawn)", "remaining compound [%]": 95.2}
{"Structure (SMILES)": "COCCN(Cc1ccc(C)c(Br)c1)S(=O)(=O)c1ccc2[nH]c(=O)ccc2c1", "remaining compound [%]": 2.3}
{"Structure (SMILES)": "O=C(C1=Cc2ccccc2OC=C1)N1CCCCC1c1ccccn1 (stereo not drawn)", "remaining compound [%]": 52.8}
{"data": "Sample 4", "target": "RAC-beta serine/threonine-protein kinase (AKT2, Homo sapiens, UniProt P31751)", "effect on": "enzyme activity", "action": "inhibitor", "tested at": "0.5 µM", "reference": "control", "sequence of UniProt P31751 (whole entry, looked up)": "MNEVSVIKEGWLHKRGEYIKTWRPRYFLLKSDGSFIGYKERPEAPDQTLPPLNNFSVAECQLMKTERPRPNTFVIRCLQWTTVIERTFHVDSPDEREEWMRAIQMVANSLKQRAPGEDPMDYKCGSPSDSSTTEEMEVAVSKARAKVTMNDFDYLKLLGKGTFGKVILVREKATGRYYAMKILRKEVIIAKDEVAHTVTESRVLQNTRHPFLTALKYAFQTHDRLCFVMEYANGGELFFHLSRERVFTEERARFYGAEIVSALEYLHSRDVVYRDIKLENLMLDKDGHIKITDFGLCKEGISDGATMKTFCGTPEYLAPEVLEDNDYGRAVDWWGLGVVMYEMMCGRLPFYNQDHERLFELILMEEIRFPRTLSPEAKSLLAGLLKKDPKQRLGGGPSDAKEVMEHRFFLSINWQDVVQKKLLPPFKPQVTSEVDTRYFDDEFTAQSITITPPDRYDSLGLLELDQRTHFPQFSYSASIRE"}
{"SMILES": "O=C1NC(=O)C(c2cn(CCCn3ccnc3)c3ccccc23)=C1Nc1ccccc1", "remaining activity [%]": 92.3}
{"SMILES": "Cc1ccc(NC(=O)c2ccc(CN3CCN(C)CC3)cc2)cc1Nc1nc(-c2cccnc2)cs1", "remaining activity [%]": 103}
{"SMILES": "O=C1NC(=O)C(c2cn(CCCO)c3ncccc23)=C1c1cnccn1", "remaining activity [%]": 114}
{"SMILES": "O=C(Nc1cccc(Nc2cc(Nc3cccc(C(F)(F)F)c3)ncn2)c1)C1CC1", "remaining activity [%]": 103}
{"SMILES": "O=C(O)c1ccc2c3c1cccc3c(=O)n1c3ccccc3nc21", "remaining activity [%]": 101}
{"SMILES": "COc1cc2ncnc(Nc3ccc(Oc4ccccc4)cc3)c2cc1OC", "remaining activity [%]": 99.4}
{"SMILES": "COc1ccc(OC)c2c(=S)c3ccccc3[nH]c12", "remaining activity [%]": 94.6}
{"SMILES": "Cc1cccc(-c2[nH]c(C(C)(C)C)nc2-c2ccc3c(c2)OCO3)n1", "remaining activity [%]": 80.1}
{"SMILES": "Cc1nc(-c2ccccc2)c(-c2ccncc2)o1", "remaining activity [%]": 96.7}
{"SMILES": "COc1cc2nccc(Oc3ccc(NC(=S)NC(=O)c4ccccc4C)cc3)c2cc1OC", "remaining activity [%]": 102}
{"SMILES": "Oc1ccc(-c2nc(-c3ccncc3)c(-c3ccc(F)cc3)[nH]2)cc1", "remaining activity [%]": 99}
{"SMILES": "Cn1c2ccccc2c2c3c(c4c5ccccc5n(CCC#N)c4c21)CNC3=O", "remaining activity [%]": 110}
{"SMILES": "CCOC(=O)c1c(C)[nH]c(/C=C2\\C(=O)Nc3ccccc32)c1C", "remaining activity [%]": 87.6}
{"note": "Excerpt of the above (sample 2):"}
{"test": "parasite killing", "system": "DD8, promastigotes", "setting": "0.33 µM, 48 h", "inhibition": "31% and 27% and 30%"}
{"test": "parasite killing", "system": "DD8, promastigotes", "setting": "0.033 µM, 24 h", "inhibition": "4% and 5%"}
